# Experimental data collected from several papers.
# Each numbered part is a random draw from the data of one study; scales do not carry over between parts.

# Set 1 — method: RNA Bind-n-Seq; molecule type: RNA; sample: in vitro; tested at: 365 nM; relative to: no-protein control; reading: higher = stronger binding
# Target: RNA binding protein fox-1 homolog 2, RRM domain, GST-SBP tag (RBFOX2, Homo sapiens, UniProt O43251-10, residues 100-194)
# Setting: natural RNA segment, single round, ends assumed
# Shared flanks, not repeated: GGGAGUUCUACAGUCCGACGAUC … UGGAAUUCUCGGGUGCCAA
# Residues (chain): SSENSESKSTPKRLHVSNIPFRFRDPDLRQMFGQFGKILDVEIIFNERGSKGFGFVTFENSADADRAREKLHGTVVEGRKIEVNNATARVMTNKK
Strand,RBNS enrichment (R)
UGCCUCCAGCCCGAGCCUCCUCUCCUCUUCUCUCCCGAGACACAGCCUCACCCGUCAUUUCAUUCUCUAUCCACUGUCUGUCACCUCCAGCAUGGAAAGGUUCAGCUGGA,1.5
CCAGGCUUGACAUAGGUAUUAAGUCAAAAUUACAUGAAACCCAGUGGUAAAAAAGCCUCUGAAAGCUGUAACACCCUCAGUAAUAACAAAAGGGAUUUUUAUUUCACAGC,0.512
CGUUCUGUUAACCUUUGUACCAAAUAGCAAUAAAAACGAGUGGGAGCCGUUGGGCGGUGCGCCAGAGGGACUGAAAUCUAUUUUGUCCCUAAAUAUUUUUUUAAAGAAUU,0.49
UAAAUUGUAAGAUUUUUACUGUAUAUUGAAGCUUAGUGUGAUUCAAUAAAUUGCUUGUAAUUUAAAAACUAUUUAAUAUUCAAAAUAAAUAUAGUUAUAUAUUUAUAAUA,1.71
CUAUAAAGAUGACACAGAAAUUGGAACCAACAAAACUGCUAACACCUUGUUGACUGUUCUGAGUUGAUAUAAGCAGUGGUAAUAAUGUGUGUACUCCUAAAUCUUUAUGC,0.318
AACUGAUGUUCUGUGUCUUCACACCCUGGCAUGACAGUUACGUGUGGUCAGCCCGCUCCCCAGGCCCGUCCCUGCCGCCGCCAGGUGUGGGCUCUAGGCAGGCCGACAAG,0.281
GAUAGCAUCCACACAAAAUUCUAUAAUCGGAAAGAUCUUUGUAACUAAUCUGAAAUACACAUAAAUGUCAGUUACAGAGGAACAUUGUUGGGGGCAGGAGGUAAAGAAAC,0.545
CUGGCUGUCAGUGACCAUGUGGGCAUUGAGGCUGGUCCCAGAGAUGCUCGAAAGUCAGUGAAAGCUAUGCCUUCUCAUGCUAGCCCAGCCCAGCCCACCCUGCGACUGGU,0.362

# Set 2 — method: aptamer microarray, sandwich; molecule type: DNA with 2'F-ANA; sample: in vitro; tested at: 200 nM; together with: Cy3 exosite-II aptamer, 400 nM; reading: higher = stronger binding; strand: GGTTGGTGTGGTTGG
# Target: Prothrombin, mature alpha-thrombin (F2, Homo sapiens, UniProt P00734)
# Setting: whole 15-mer aptamer, many near background
Modification,mean fluorescence intensity [a.u.]
2'F-ANA at 4 5 6 7 8 9 12 14 15,49.9
2'F-ANA at 3 4 6 7 8 9 10 14,206
2'F-ANA at 1 2 4 5 7 8 9 10 11 12 14 15,49.1
2'F-ANA at 2 3 6 9 10 13 14,251
2'F-ANA at 1 3 4 8 9,244
2'F-ANA at 1 2 3 4 8 10 13,53.1
2'F-ANA at 2 5 7 10 11 15,71.6
2'F-ANA at 1 2 3 5 6 8 9 12 14,46.4
2'F-ANA at 2 6 7 9 11 15,266
2'F-ANA at 2 4 5 6 7 8 10 12 14,46.1
2'F-ANA at 2 4 5 7 9 10 11 13,56.7
2'F-ANA at 4 6 7 8 9 11 12 13 14 15,87.1
2'F-ANA at 1 3 4 8 9 10 11 12 14,52.9
2'F-ANA at 5 6 7 8 11 12 13 14,47.9
2'F-ANA at 1 3 4 5 8 9 10 13 14 15,48.1
2'F-ANA at 1 2 3 5 6 10 14,66.5
2'F-ANA at 2 4 5 6 9 10 11 12 13,65.1
2'F-ANA at 6 7 8 9 10 13,148
2'F-ANA at 1 3 6 10 11 12,99.8
2'F-ANA at 1 2 4 5 9 10 13 15,63.9

# Set 3 — method: RNA Bind-n-Seq; molecule type: RNA; sample: in vitro; tested at: 200 nM; setting: whole 134-nt RNA, ends assumed; together with: 150 mM KCl; relative to: input library; reading: higher = stronger binding
# Target: Ras GTPase-activating protein-binding protein 1, full length (G3BP1, Homo sapiens, UniProt Q13283)
# UniProt Q13283, sequence (whole entry, looked up): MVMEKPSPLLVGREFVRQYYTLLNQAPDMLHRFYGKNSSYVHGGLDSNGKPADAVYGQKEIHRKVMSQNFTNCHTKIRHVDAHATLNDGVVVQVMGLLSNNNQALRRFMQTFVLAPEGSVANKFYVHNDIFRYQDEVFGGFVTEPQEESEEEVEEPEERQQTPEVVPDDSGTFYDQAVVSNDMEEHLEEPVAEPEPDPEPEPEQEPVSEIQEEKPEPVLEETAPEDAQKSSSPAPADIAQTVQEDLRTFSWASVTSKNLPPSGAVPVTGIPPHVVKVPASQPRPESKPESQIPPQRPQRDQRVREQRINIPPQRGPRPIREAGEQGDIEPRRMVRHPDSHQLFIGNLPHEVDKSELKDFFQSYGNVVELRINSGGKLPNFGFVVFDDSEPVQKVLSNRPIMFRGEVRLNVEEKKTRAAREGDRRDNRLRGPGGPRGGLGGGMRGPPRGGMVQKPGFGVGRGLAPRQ
# Shared flanks, not repeated: GGGAGUUCUACAGUCCGACGAUC … UGGAAUUCUCGGGUGUCAAGG
Strand,log2 enrichment
CAAGUCCUGUGCUACACAUCGUAUGUACCGAAUCGGGUUUGGGAAAGGGUUUGGGAAAGUAUUAUGUUACGCCGUUCGGAUCUGCACUUC,0.617
AAGUCCUGUGCUACACAUCGUAUGUACCGAAUCGGGAAAGGGUUUUUGGGAAAGGGAAAGUAUUAUGUUACGCCGUUCGGAUCUGCACUU,0.0255
CCUGUGCUACACAUCGUAUGUACCGAAUCGGGGUUUUUUUGGGGAAAAAGGGGUUUGGGGAAAGUAUUAUGUUACGCCGUUCGGAUCUGC,0.145
CAAGUCCUGUGCUACACAUCGUAUGUACCGAAUCGGGUUUUUGGGAAAGGGUGGGAAAGUAUUAUGUUACGCCGUUCGGAUCUGCACUUC,0.466
CACAGACAACACGCACCCACACAGACACAGAGGGAAGGGGUUGGGAUGGGGACAGGGUGCACAGCAGGGCGGGGUAGGAUCCCAGCCCCU,1.79
CAAGUCCUGUGCUACACAUCGUAUGUACCGAAUCGGAAAAGGGAAAAGGAAAAGGGAAAGUAUUAUGUUACGCCGUUCGGAUCUGCACUU,-0.939
UCAAGUCCUGUGCUACACAUCGUAUGUACCGAAUCGGUUUGGGGUUUGGUUUGGAAAGUAUUAUGUUACGCCGUUCGGAUCUGCACUUCC,-0.417
CCUGUGCUACACAUCGUAUGUACCGAAUCGGGGAAAAAAGGGAAAAAAGGGGAAAAAAGGGAAAGUAUUAUGUUACGCCGUUCGGAUCUG,-0.229
GUCCUGUGCUACACAUCGUAUGUACCGAAUCGGGUUUUUGGGGUUUUUGGGGUUUUUGGAAAGUAUUAUGUUACGCCGUUCGGAUCUGCA,-0.243

# Set 4 — method: protein binding microarray; molecule type: double-stranded DNA, one strand shown; sample: in vitro; tested at: not given; relative to: not given; reading: higher = stronger binding
# Target: Histone acetyltransferase KAT6A, winged helix 1, GST fusion (KAT6A, Homo sapiens, UniProt Q92794, residues 1-85)
# Setting: 8-mer, flanks averaged, mean of 2 arrays, mostly near background
# Construct (chain): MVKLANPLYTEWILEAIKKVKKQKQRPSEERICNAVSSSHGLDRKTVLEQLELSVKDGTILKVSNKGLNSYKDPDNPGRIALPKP
Strand,E-score
GAGGATAC,-0.124
ACCACATC,-0.197
AATGGCAC,-0.00845
GCCGTAGA,0.314
GCATGAAA,-0.222
GAAATGGA,-0.179
CCACCCAA,-0.232
AAGCTACT,-0.126
CTCGCCAG,-0.0178
GTGGCTGA,-0.0623
AGCTACAA,-0.113
CGGCTTGA,0.213
ACGAGTTG,-0.222
ACAAAATC,-0.151
AGACGGAC,0.132
GTCTGGGA,-0.239
CAGCTATC,-0.226
ATGAACGG,0.151
CGTGCTGA,-0.143
GCGGGAAA,0.267
CCTCAAGA,-0.118
ACGCGCAG,0.291

# Excerpt of the above (set 2):
Modification,mean fluorescence intensity [a.u.]
2'F-ANA at 1 3 4 5 8 9 10 13 14 15,48.1
2'F-ANA at 1 2 3 5 6 10 14,66.5
2'F-ANA at 2 4 5 6 9 10 11 12 13,65.1
2'F-ANA at 6 7 8 9 10 13,148
